Assay results from different studies.
Protocols differ between the studies behind these lines.
Observed: enzyme activity
Action: inhibitor
CTSL: Procathepsin L (CTSL, Homo sapiens, UniProt P07711)
Sequence of UniProt P07711 (whole entry, looked up): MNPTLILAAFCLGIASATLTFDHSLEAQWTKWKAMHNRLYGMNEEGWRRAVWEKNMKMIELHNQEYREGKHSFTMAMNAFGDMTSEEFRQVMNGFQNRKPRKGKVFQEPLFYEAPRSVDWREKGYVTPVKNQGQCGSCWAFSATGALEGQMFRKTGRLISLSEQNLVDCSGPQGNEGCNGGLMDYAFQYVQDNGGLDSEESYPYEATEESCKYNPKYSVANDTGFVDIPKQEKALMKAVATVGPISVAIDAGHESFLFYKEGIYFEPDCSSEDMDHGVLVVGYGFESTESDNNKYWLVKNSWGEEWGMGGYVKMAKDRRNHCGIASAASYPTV
ST14: Suppressor of tumorigenicity 14 protein (ST14, Homo sapiens, UniProt Q9Y5Y6)
Sequence of UniProt Q9Y5Y6 (whole entry, looked up): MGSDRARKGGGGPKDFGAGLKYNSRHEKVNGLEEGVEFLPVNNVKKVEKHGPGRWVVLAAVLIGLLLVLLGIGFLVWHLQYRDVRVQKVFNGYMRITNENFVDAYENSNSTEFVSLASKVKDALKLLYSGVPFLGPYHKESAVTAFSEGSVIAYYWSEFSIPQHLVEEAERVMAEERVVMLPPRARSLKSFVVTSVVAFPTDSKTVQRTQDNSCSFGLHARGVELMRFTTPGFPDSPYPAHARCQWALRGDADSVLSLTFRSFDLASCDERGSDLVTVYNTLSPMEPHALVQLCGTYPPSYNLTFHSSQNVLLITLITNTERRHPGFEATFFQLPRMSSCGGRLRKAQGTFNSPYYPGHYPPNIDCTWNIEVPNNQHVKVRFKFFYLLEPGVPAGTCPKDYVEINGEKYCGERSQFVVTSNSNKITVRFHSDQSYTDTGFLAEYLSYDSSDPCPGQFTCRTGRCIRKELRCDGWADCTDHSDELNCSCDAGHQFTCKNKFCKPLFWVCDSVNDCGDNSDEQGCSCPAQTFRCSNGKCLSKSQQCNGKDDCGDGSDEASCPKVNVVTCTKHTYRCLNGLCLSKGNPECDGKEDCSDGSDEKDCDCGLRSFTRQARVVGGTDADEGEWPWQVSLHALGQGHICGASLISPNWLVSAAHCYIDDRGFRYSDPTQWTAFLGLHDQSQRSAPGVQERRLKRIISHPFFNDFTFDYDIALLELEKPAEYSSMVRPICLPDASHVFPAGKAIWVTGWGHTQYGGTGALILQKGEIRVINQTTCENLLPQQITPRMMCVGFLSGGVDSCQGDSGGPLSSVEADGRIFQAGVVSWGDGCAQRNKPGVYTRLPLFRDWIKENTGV
CDK5 with p35: Cyclin-dependent kinase 5, with p35 (CDK5, Homo sapiens, UniProt Q00535)
Sequence of UniProt Q00535 (whole entry, looked up): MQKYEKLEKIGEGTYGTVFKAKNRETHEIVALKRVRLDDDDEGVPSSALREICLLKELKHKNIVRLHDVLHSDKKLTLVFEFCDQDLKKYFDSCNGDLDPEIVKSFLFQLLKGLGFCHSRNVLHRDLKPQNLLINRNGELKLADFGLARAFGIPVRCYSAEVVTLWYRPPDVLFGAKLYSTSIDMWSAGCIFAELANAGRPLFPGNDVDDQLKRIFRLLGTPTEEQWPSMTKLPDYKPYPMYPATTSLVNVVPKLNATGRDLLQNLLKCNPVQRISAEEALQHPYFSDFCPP
Sequence of UniProt Q9UL54 (whole entry, looked up): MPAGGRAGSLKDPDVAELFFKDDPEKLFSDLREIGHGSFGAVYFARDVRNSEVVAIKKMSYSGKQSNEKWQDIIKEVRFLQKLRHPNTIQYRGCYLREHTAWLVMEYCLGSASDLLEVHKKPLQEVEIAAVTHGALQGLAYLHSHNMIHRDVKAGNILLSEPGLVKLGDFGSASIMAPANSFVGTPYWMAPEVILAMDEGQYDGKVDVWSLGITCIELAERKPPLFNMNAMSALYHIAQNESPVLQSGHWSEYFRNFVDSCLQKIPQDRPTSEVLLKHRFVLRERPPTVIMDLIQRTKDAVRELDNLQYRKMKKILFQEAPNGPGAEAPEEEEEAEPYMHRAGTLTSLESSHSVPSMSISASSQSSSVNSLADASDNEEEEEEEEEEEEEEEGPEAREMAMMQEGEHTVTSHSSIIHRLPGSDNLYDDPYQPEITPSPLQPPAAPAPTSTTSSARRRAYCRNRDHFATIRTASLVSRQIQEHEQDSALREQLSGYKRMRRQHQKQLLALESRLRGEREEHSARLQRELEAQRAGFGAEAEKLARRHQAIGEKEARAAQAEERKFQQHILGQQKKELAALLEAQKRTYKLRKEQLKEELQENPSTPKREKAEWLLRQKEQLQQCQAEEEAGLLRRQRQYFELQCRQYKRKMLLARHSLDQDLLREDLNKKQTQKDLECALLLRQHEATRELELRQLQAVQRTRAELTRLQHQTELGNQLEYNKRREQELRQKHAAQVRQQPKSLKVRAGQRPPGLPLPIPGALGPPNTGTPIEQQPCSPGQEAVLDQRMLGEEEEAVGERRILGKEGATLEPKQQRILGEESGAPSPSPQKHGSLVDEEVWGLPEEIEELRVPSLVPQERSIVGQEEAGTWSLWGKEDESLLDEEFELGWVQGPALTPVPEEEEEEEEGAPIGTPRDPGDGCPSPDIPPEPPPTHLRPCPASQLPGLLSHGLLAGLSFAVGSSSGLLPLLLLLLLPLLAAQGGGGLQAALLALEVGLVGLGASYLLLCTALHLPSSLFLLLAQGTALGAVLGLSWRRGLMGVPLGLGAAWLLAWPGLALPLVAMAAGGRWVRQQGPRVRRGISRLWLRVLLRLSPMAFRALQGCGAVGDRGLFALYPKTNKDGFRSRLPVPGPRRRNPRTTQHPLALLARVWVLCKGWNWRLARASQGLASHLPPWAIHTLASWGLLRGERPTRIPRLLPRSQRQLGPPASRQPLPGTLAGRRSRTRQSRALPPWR
Sequence of UniProt Q9UEE5 (whole entry, looked up): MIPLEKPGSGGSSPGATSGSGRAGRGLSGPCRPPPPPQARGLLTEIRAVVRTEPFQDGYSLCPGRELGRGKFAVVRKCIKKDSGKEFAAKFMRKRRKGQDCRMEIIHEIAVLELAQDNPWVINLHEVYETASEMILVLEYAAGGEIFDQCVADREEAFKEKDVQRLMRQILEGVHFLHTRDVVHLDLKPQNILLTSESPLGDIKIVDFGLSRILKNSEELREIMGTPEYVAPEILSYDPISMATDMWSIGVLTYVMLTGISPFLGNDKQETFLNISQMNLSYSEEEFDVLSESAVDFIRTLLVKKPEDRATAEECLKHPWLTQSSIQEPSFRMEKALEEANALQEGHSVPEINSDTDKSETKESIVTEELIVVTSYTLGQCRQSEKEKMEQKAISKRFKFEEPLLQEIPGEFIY
Sequence of UniProt P05164 (whole entry, looked up): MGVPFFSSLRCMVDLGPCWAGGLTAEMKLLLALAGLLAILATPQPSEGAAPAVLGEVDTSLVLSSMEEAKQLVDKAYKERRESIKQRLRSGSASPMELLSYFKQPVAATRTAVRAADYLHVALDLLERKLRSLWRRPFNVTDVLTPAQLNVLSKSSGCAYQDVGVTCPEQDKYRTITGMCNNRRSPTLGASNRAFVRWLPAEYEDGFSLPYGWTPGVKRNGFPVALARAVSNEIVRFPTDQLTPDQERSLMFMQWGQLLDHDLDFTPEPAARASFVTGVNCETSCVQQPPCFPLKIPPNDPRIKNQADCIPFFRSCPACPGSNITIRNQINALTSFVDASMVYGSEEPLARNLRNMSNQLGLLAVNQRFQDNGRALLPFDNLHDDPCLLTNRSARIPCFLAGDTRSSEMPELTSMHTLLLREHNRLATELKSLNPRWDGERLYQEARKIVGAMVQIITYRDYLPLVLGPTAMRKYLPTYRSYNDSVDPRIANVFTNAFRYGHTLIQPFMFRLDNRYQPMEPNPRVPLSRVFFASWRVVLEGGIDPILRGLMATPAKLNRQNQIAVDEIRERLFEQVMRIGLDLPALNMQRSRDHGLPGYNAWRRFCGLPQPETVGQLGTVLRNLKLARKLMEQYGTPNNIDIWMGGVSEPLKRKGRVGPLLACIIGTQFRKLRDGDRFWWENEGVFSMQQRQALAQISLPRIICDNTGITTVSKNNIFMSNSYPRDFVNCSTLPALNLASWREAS
Sequence of UniProt P22607 (whole entry, looked up): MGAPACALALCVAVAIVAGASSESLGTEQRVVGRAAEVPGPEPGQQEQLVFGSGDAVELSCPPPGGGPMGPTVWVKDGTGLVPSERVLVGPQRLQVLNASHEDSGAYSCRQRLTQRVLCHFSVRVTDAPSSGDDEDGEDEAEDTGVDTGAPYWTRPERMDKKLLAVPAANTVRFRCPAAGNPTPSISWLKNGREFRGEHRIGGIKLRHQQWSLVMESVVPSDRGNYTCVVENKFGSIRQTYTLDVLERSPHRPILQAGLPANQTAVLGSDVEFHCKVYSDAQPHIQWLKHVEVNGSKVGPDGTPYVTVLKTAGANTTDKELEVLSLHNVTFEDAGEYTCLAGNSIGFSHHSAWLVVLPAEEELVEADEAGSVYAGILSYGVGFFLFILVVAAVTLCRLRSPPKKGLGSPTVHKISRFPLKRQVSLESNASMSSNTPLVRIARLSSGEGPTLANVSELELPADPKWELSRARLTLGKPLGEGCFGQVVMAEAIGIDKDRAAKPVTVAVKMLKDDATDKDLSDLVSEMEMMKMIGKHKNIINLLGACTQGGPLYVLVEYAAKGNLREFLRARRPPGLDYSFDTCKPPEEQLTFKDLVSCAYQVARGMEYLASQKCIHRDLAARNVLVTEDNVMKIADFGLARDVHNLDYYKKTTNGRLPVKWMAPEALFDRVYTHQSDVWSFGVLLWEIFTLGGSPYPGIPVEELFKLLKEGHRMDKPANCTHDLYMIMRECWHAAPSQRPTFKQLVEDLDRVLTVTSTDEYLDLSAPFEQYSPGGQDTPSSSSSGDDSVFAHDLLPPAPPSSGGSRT

CC1COC2=C1C(=O)C(=O)c1c2ccc2c1CCCC2(C)C (stereo not shown) — remaining activity (CTSL; 100 µM): 11.6%
NC/C(=C\F)COc1cccc(Cn2c(=S)[nH]c(=O)c3[nH]cnc32)c1 — remaining activity (Myeloperoxidase (Mus musculus, UniProt P11247); 83 nM): 50.4%
Nc1ncnc2occ(-c3ccc(NC(=O)Nc4cc(C(F)(F)F)ccc4F)cc3)c12 — remaining activity (COQ8A (Homo sapiens, UniProt Q8NI60); 20 µM): 13%
O=C1c2cccc(O)c2C(=O)c2c(O)cccc21 — remaining activity (CTSL; 100 µM): 15.8%
N=C(N)NCCC[C@H](NC(=O)[C@H](Cc1ccncc1)NC(=O)[C@H](Cc1cscn1)NC(=O)CCc1ccccc1)C(=O)c1nc2ccccc2s1 — remaining activity (ST14; 0.1 µM): 62%
CNc1ncc2c(/C=C/C(=O)N3CCC(OC)CC3)nn(Cc3cccc(C(F)(F)F)c3)c2n1 — remaining activity (FGFR3 (Homo sapiens, UniProt P22607); radiometric; 1 µM): 84%
CC(C)(O)[C@H](NC(=O)[C@H](Cc1cscn1)NC(=O)CCc1ccccc1)C(=O)N[C@@H](CCCNC(=N)N)C(=O)c1nc2ccccc2s1 — remaining activity (ST14; 0.1 µM): 82%
O=C1Nc2ccccc2C1=O — remaining activity (CTSL; 100 µM): 103%
CC[C@H](C)[C@H](NC(=O)[C@H](CCC(N)=O)NC(=O)[C@@H](NC(=O)[C@H](CCSC)NC(=O)[C@H](CCCCN)NC(=O)[C@H](CO)NC(=O)[C@@H](NC(=O)[C@H](CCSC)NC(=O)[C@H](CC(C)C)NC(=O)[C@H](CC(N)=O)NC(=O)[C@@H](NC(=O)[C@@H](NC(=O)[C@H](CO)NC(=O)[C@H](CC(C)C)NC(=O)[C@H](C)NC(=O)[C@H](CCCNC(=N)N)NC(=O)[C@H](CCC(=O)O)NC(=O)[C@H](Cc1ccc(O)cc1)NC(=O)[C@H](Cc1ccccc1)NC(=O)[C@H](C)NC(=O)[C@H](CC(N)=O)NC(=O)[C@@H](N)CCCCN)[C@@H](C)CC)[C@@H](C)CC)[C@@H](C)O)C(C)C)C(=O)N[C@@H](CC(N)=O)C(=O)N[C@H](C(=O)O)C(C)C — remaining activity (Cyclin-dependent kinase 5, with p25 (CDK5, Homo sapiens, UniProt Q00535); radiometric; 500 µM, 20 min): 15%
NC(=O)[C@@H](N)Cc1c[nH]c2ccccc12 — remaining activity (CTSL; 100 µM): 130%
N=C(N)NCCC[C@H](NC(=O)[C@H](Cc1ccccc1I)NC(=O)[C@H](Cc1cscn1)NC(=O)CCc1ccccc1)C(=O)c1nc2ccccc2s1 — remaining activity (Transmembrane protease serine 6 (Homo sapiens, UniProt Q8IU80); 0.1 µM): 74%
Cc1nn(CC(F)(F)F)cc1Nc1nccc(NCCCNC(=O)C2CCC2)n1 — remaining activity (STK17A (Homo sapiens, UniProt Q9UEE5); radiometric; 1 µM): 106%
CCCOc1ccc(OC)c(F)c1C(=O)c1ccc(C(=O)N[C@@H]2CNC[C@H]2NC(=O)c2ccc3[nH]ncc3c2)cc1 — remaining activity (CDK5 with p35; 10 µM): 16%
C[C@H](O)[C@@H](NC(=O)[C@H](Cc1cscn1)NC(=O)CCc1ccccc1)C(=O)N[C@@H](CCCNC(=N)N)C(=O)c1nc2ccccc2s1 — remaining activity (ST14; 0.1 µM): 31%
COc1cc(-c2cncc3c2CN(C)Cc2cc(N4CCNCC4)ccc2-3)cc(OC)c1OC — remaining activity (TAOK2 (Homo sapiens, UniProt Q9UL54); 1 µM): 111%
COc1ccc(/C=C/C(=O)c2c(O)cc(OC3OC(COC4OC(C)C(O)C(O)C4O)C(O)C(O)C3O)cc2OC)cc1O (stereo not shown) — remaining activity (CTSL; 100 µM): 89.8%
CC[C@H](C)[C@H](NC(=O)[C@H](CCC(N)=O)NC(=O)[C@H](CC(C)C)NC(=O)[C@H](CCSC)NC(=O)[C@H](CCCCN)NC(=O)[C@H](CO)NC(=O)[C@H](CO)NC(=O)[C@H](CCSC)NC(=O)[C@H](CC(C)C)NC(=O)[C@H](CC(N)=O)NC(=O)[C@@H](NC(=O)[C@@H](NC(=O)[C@H](CO)NC(=O)[C@H](CC(C)C)NC(=O)[C@H](CS)NC(=O)[C@H](CCCNC(=N)N)NC(=O)[C@H](CC(=O)O)NC(=O)[C@H](Cc1c[nH]c2ccccc12)NC(=O)[C@H](Cc1ccccc1)NC(=O)[C@H](C)NC(=O)[C@H](CCC(=O)O)NC(=O)[C@@H](N)CCCCN)C(C)C)[C@@H](C)CC)C(=O)N[C@@H](CC(N)=O)C(=O)N[C@@H](C)C(=O)O — remaining activity (CDK5 with p35; radiometric; 1 µM, 20 min): 102%
O=C(O)CNC(=O)c1ccccc1 — remaining activity (CTSL; 100 µM): 106%
CC(C)OCCn1c(=S)[nH]c(=O)c2[nH]ccc21 — remaining activity (Myeloperoxidase (MPO, Homo sapiens, UniProt P05164); 0.625 µM): 44.9%

Some of these lines once more:
CC(C)(O)[C@H](NC(=O)[C@H](Cc1cscn1)NC(=O)CCc1ccccc1)C(=O)N[C@@H](CCCNC(=N)N)C(=O)c1nc2ccccc2s1 — remaining activity (ST14; 0.1 µM): 82%
CC[C@H](C)[C@H](NC(=O)[C@H](CCC(N)=O)NC(=O)[C@H](CC(C)C)NC(=O)[C@H](CCSC)NC(=O)[C@H](CCCCN)NC(=O)[C@H](CO)NC(=O)[C@H](CO)NC(=O)[C@H](CCSC)NC(=O)[C@H](CC(C)C)NC(=O)[C@H](CC(N)=O)NC(=O)[C@@H](NC(=O)[C@@H](NC(=O)[C@H](CO)NC(=O)[C@H](CC(C)C)NC(=O)[C@H](CS)NC(=O)[C@H](CCCNC(=N)N)NC(=O)[C@H](CC(=O)O)NC(=O)[C@H](Cc1c[nH]c2ccccc12)NC(=O)[C@H](Cc1ccccc1)NC(=O)[C@H](C)NC(=O)[C@H](CCC(=O)O)NC(=O)[C@@H](N)CCCCN)C(C)C)[C@@H](C)CC)C(=O)N[C@@H](CC(N)=O)C(=O)N[C@@H](C)C(=O)O — remaining activity (CDK5 with p35; radiometric; 1 µM, 20 min): 102%
